Results from different studies.
A part holds a random share of what one study measured. Changes are numbered by the printed parent chain.

Sample 1 — method: protein binding microarray; form: double-stranded DNA, one strand shown; medium: in vitro; tested at: not given; reference: not given; direction: higher = stronger binding; measurement: E-score
Target: Histone acetyltransferase KAT6A, winged helix 1, GST fusion (KAT6A, Homo sapiens, UniProt Q92794, residues 1-85)
Notes: 8-mer, flanks averaged, mean of 2 arrays, mostly near background
Target sequence (chain): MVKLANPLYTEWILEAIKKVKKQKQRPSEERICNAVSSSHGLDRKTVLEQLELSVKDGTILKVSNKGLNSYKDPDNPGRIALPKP
ACGAGATC: -0.137
GGATCGAC: -0.035
TGAGGGAA: -0.16
AGAGATTC: -0.193
CAGTAGGA: -0.14
ATAAGAAA: -0.082
GACATTGC: 0.0622
TGGTTGAA: -0.225
ATGCCTCG: -0.0843
CCTTCGTC: -0.171
AGCCAATG: -0.207
ACTCCTTA: -0.0275
CTCCTTCC: -0.091
AACAACAT: -0.133
ACCCCAGT: -0.282
ACCAGCGG: 0.282
GCCCCCGC: 0.395
CTCTTGCC: -0.159
CCGAACGC: 0.186
ATGGGACA: -0.116
GTGTGAAC: -0.0359
AACTTAGG: -0.16

Sample 2 — method: DHFR PCA, deep sequencing; medium: yeast; with: (+)-ABA 1.4 µM; reference: wild-type fitted maximum; direction: higher = stronger binding; measurement: relative binding score
Target: ABI1, truncated, D143A, DHFR fusion (Arabidopsis thaliana)
Notes: methotrexate growth selection, single substitutions
Starting sequence: PYL1, truncated, DHFR fusion (Arabidopsis thaliana); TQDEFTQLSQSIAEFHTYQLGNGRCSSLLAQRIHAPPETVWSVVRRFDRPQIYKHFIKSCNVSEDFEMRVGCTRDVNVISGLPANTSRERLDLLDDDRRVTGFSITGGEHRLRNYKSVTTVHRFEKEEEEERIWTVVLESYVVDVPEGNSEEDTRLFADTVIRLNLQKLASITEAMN; partner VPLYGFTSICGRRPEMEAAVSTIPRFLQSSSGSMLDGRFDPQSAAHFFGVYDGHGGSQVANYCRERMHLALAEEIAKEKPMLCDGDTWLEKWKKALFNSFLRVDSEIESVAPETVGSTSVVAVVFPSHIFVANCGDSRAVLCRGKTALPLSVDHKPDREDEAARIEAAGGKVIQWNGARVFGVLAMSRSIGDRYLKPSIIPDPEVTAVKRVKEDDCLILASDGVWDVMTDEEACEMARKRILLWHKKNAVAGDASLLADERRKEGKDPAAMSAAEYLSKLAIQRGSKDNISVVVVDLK
P83Q: 10.9%
F56G: -3.45%
I172E: -25.8%
Y18M: 9.22%
R90A: 1.64%
D153R: -1.47%
S26A: 44.7%
E4F: 11.4%
S9A: 74.3%
H55A: 81.6%
A30I: 45.3%
N85Q: 67.6%
V145W: -14.5%
A13H: 45.1%
E130A: 62.5%
E130F: 39.7%
A158L: 54.9%
D96V: -2.28%
N165G: 5.11%
L112S: -9.21%
F56V: -8.6%
F103H: 6.95%
E109V: 22%
T39R: 55.8%

Sample 3 — organism: Saccharomyces cerevisiae; observed: binding; method: competitive growth deep sequencing; form: peptide; strain: cyclin D3-Cln2 fusion strain; notes: peptide tiling library; direction: direction not given; measurement: enrichment score
YLYLLLTQSLWCRV: -1.17
LENIEPLQVSFAVLSS: 0.866
KVRRNLFNQELLSP: -1.38
QNPCGSKACRRLFGPV: -1.36
AKRSLGFLPQPVPL: -1.19
NEGVSNAVRRSLYIRD: -1.85
EPRNLLSLFEDTLDPT: -0.0764
NSMKELNFSHLPSNSV: 0.155
GTPKRCLDLSNLSSGE: 2.26
RQVRRDLFAF: -1.97
EHCRVLFLDHVMYTIH: -0.616
ATNSSHTDAHEILVSD: 0.0771
GPVKLEFDVSDGAT: 0.256
ESSQLTVQAEFDMSAI: 1.27
QYQVVDDIVSKLVFDF: -0.154
DVSERGYVILPNDYFE: 1.21
SPPRGRRLFPPGPAGF: -0.447

Single results of other studies
PhoQ, residues 284 288 289 292 302 303 AGGCYF — fold induction (PhoP, residues 12 14 15 18 19 LHHSG (Escherichia coli, UniProt P23836); Sort-seq, item: YFP reporter; E. coli; PhoQ-PhoP variant library, with: 10 µM Mg2+; reference: high Mg2+ state, higher = stronger signaling): 3.15

A few entries again (sample 2):
H55A: 81.6%
P83Q: 10.9%
F56V: -8.6%
A30I: 45.3%
Y18M: 9.22%
